{"data": "Measured values of several laboratories", "note": "Each numbered part is a random draw from the data of one study; scales do not carry over between parts. Substitutions count along the parent as printed."}
{"data": "Set 1", "target": "CREB5, bZIP domain (human)", "method": "DHFR protein complementation", "sample": "yeast", "setting": "single substitutions, most at no-binding floor", "relative to": "wild-type JUN-FOS pair", "direction": "higher = stronger binding", "parent": "JUN, bZIP domain (human); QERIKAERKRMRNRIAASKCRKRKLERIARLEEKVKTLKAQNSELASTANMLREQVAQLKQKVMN; partner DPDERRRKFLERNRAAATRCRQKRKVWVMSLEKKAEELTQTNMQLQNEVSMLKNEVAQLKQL"}
{"Change": "E32V", "binding fitness": "-0.475 natural log"}
{"Change": "R30N", "binding fitness": "-0.31 natural log"}
{"Change": "I28C", "binding fitness": "-0.585 natural log"}
{"Change": "V35N", "binding fitness": "-1.18 natural log"}
{"Change": "E54Y", "binding fitness": "-0.624 natural log"}
{"Change": "K34S", "binding fitness": "-0.454 natural log"}
{"Change": "V35R", "binding fitness": "-1.35 natural log"}
{"Change": "A29K", "binding fitness": "-0.415 natural log"}
{"Change": "V56C", "binding fitness": "-0.673 natural log"}
{"Change": "Q55R", "binding fitness": "-0.519 natural log"}
{"Change": "R30S", "binding fitness": "-0.15 natural log"}
{"Change": "E44Q", "binding fitness": "-0.331 natural log"}
{"Change": "S47H", "binding fitness": "-0.274 natural log"}
{"Change": "A49W", "binding fitness": "-1.09 natural log"}
{"Change": "Q55N", "binding fitness": "-0.902 natural log"}
{"Change": "L31C", "binding fitness": "-1.17 natural log"}
{"Change": "L45C", "binding fitness": "-1.32 natural log"}
{"data": "Set 2", "target": "CCNF, cyclin fold, Cln2 fusion (human)", "method": "yeast growth competition, sequencing", "sample": "yeast", "setting": "strong parent motif", "relative to": "not given", "direction": "higher = stronger binding", "parent": "EXO1 docking peptide (human); KPECGRVQRAIFQ"}
{"Change": "C4A", "normalised enrichment score": 2.59}
{"Change": "F12A", "normalised enrichment score": -0.22}
{"Change": "P2A", "normalised enrichment score": 1.86}
{"Change": "R6A", "normalised enrichment score": 1.64}
{"Change": "R9A", "normalised enrichment score": 0.264}
{"Change": "E3A", "normalised enrichment score": 2.12}
{"data": "Set 3", "target": "Ras GTPase-activating protein-binding protein 1, C-terminal RGG region (G3BP1, Homo sapiens, UniProt Q13283)", "method": "RNA Bind-n-Seq", "molecule type": "RNA", "sample": "in vitro", "tested at": "1 µM", "setting": "whole 134-nt RNA, ends assumed", "together with": "150 mM KCl", "relative to": "input library", "direction": "higher = stronger binding", "shared flanks, not repeated": "GGGAGUUCUACAGUCCGACGAUC … UGGAAUUCUCGGGUGUCAAGG", "sequence of UniProt Q13283 (whole entry, looked up)": "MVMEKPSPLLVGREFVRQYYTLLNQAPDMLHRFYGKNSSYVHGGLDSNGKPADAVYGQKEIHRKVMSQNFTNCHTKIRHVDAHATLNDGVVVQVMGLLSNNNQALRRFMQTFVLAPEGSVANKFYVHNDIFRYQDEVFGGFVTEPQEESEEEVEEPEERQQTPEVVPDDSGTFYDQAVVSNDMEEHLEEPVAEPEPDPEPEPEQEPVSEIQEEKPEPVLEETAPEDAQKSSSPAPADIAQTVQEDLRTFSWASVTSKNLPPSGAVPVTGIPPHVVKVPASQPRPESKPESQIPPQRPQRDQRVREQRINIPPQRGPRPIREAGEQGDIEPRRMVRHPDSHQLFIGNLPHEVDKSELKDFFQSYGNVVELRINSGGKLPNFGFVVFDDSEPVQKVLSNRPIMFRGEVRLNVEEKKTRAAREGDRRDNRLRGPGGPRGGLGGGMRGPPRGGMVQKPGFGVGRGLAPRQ"}
{"Sequence": "CAAGUCCUGUGCUACACAUCGUAUGUACCGAAUCGGGAAAGGGUUUUUGGGUGGGAAAGUAUUAUGUUACGCCGUUCGGAUCUGCACUUC", "log2 enrichment": 1.04}
{"Sequence": "AAGUCCUGUGCUACACAUCGUAUGUACCGAAUCGGGCCCCGGGCCCCGGGGCCCCGGAAAGUAUUAUGUUACGCCGUUCGGAUCUGCACU", "log2 enrichment": -1.55}
{"Sequence": "UCAAGUCCUGUGCUACACAUCGUAUGUACCGAAUCGGUUUGGUUUGGGUUUGGGGAAAGUAUUAUGUUACGCCGUUCGGAUCUGCACUUC", "log2 enrichment": -0.946}
{"Sequence": "AGUCCUGUGCUACACAUCGUAUGUACCGAAUCGUGUGUGUGUGUGUGUGUGUGUGUGUAAAGUAUUAUGUUACGCCGUUCGGAUCUGCAC", "log2 enrichment": 1.53}
{"Sequence": "AGUCCUGUGCUACACAUCGUAUGUACCGAAUCGGGGAGGGGAAAGGGGAAAAAGGGGAAAGUAUUAUGUUACGCCGUUCGGAUCUGCACU", "log2 enrichment": 1.56}
{"Sequence": "UGGCCCUGGUGGCAUGCGGGGAGGAAGAGGUGGCCUCAUGGAUCGUGGUGGUCCCGGUGGAAUGUUCGGAGGUGGCCGUGGUGGAGACAG", "log2 enrichment": 3.21}
{"Sequence": "UCCUCAAGUCCUGUGCUACACAUCGUAUGUACCGAAUCGGAGGUGGAAAGGAAAGUAUUAUGUUACGCCGUUCGGAUCUGCACUUCCAGC", "log2 enrichment": -1.24}
{"Sequence": "CUGUGCUACACAUCGUAUGUACCGAAUCGGGGUUUUUUUGGGGAAAGGGGUUUUUUUGGGGAAAGUAUUAUGUUACGCCGUUCGGAUCUG", "log2 enrichment": -0.0975}
{"Sequence": "AAGUCCUGUGCUACACAUCGUAUGUACCGAAUCGGGAGGGUUUUUGGGUUUUUGGGAAAGUAUUAUGUUACGCCGUUCGGAUCUGCACUU", "log2 enrichment": -0.135}
{"Sequence": "CCUGUGCUACACAUCGUAUGUACCGAAUCAAAUUUUUUUAAACCCCCCCAAACCCCCAAAAAAGUAUUAUGUUACGCCGUUCGGAUCUGC", "log2 enrichment": -1.13}
{"Sequence": "ACCAUGCAGGUGGGCAUCUUUGGGAAGUGGGGCAAGGGGGGGAUAGGGAGGGGGGUAACACUUUGGGAACAGGUGGUCGCAGGUCGUUUC", "log2 enrichment": 2.28}
{"Sequence": "GUCCUGUGCUACACAUCGUAUGUACCGAAUCGGGGUUUUUGGGGAGGGGUUUUUGGGGAAAGUAUUAUGUUACGCCGUUCGGAUCUGCAC", "log2 enrichment": 1.93}
{"Sequence": "GUCCUGUGCUACACAUCGUAUGUACCGAAUCGGGGAGGGGUUUUUUUGGGGUUUGGGGAAAGUAUUAUGUUACGCCGUUCGGAUCUGCAC", "log2 enrichment": 1.43}
{"Sequence": "CACAGACAACACGCACCCACACAGACACAGAGGGAAGGGGUUGGGAUGGGGACAGGUUGCACAGCAGGGCGGGGUAGGACCCCAGCCCCU", "log2 enrichment": -0.614}
{"data": "Set 4", "target": "RING finger protein unkempt homolog, zinc fingers 1-6, GST-SBP tag (UNK, Homo sapiens, UniProt Q9C0B0, residues 30-357)", "method": "RNA Bind-n-Seq", "molecule type": "RNA", "sample": "in vitro", "tested at": "not given", "setting": "RNA with constant flanks, human and mouse sites, ends assumed", "relative to": "input RNA pool", "direction": "higher = stronger binding", "shared flanks, not repeated": "GGGAGUUCUACAGUCCGACGAUC … CAACAGAGGAUUGAGCAUCA", "Target sequence (chain)": "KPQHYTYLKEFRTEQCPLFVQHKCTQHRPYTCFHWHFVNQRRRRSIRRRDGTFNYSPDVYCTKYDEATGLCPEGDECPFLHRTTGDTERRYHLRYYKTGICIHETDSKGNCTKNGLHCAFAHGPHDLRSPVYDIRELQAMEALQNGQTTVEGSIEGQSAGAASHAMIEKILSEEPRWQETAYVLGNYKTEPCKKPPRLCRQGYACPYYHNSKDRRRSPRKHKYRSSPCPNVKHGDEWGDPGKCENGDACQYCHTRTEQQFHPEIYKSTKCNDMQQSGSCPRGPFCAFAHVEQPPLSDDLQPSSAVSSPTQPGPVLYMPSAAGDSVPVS"}
{"Sequence": "CCUGACACUCUGGACCCAGCGCUCAUGAGACCGGGGAGGCUGGACAGGAAGAUUGAGUUCAGCUUACCUGACUUAGAGGGUCGAACGCACAUCUUUAAGAUUCACGCUCGCUCAAUGAGU", "bound/input enrichment": "0.0571 ratio"}
{"Sequence": "GCUUUGGCUUAGGACGUUGCUUUUGUGGUUGGACAUCCCUGUCUGCUGCUCUCCAGACUUAGAUACUAUGCUCUCUGUCUUCUUUUUCUCCCUAUGCUUUGUAUUUGAAAAUAGGUCUUU", "bound/input enrichment": "3.84 ratio"}
{"Sequence": "UUCCCCAAUCGCUUUUCCAGCCGUCCAAUAACUGGACCUCACAUUGCAUACACAGAGGCUGUCAGCGAUACUCAGAUCAUGCUAAAGUGGACGUACAUUCCAUCAAGUAACAAUAACACU", "bound/input enrichment": "0.221 ratio"}
{"Sequence": "CAUGCUUUGAAGCUGGAUUCUUUUGGCCAGUUUGUUGAAUUAUUGCCCAGCCUGGAAUUUAUUUCUCUGGACCAGAUGUUCCGUGAGCCACCCAAGGGCUGUGCUCGAGUUGGUCUGAGU", "bound/input enrichment": "0.112 ratio"}
{"Sequence": "AUUGGGACCAGCUCUCUGAAUAGAAAUAGUAGUAAAAAAACCAAGCAAAAUGAUAUUUGUAUAGAAAAAACAGAAGCUAAAUCAUGUAAAGUAAACGCUGCCAGUGUUCCAGGCCCUAAA", "bound/input enrichment": "55.5 ratio"}
{"Sequence": "GAGAAUGCCGUGGAGCAUGAUUGUGGGCGCACUGUGUACUCUCGGGUGGCCCGGGUGUGCAAGAAUGAUGUAGGUGGCCGUUUCCUGCUGGAGGACACGUGGACCACAUUCAUGAAGGCC", "bound/input enrichment": "0.0778 ratio"}
{"Sequence": "GAAUUGCCAGAGAGGGCAACAAAUCCAUUUGUAAAUAGAGAGUCAGCAGAGUUUUCAGUAUUAGAAUACUCAGAAAUGGGAUCAUCUUUCAAUGGCUCCCCAAAAGGAGAGUCAGCCAUG", "bound/input enrichment": "0.33 ratio"}
{"Sequence": "CUAACUUGCGCAGAAAACAAGAUGAGAUUGGCAUGGCUUUAUUUGUUUUUUUUGUUUUGUUUUGGUUUUUUUUUUUUUUUUGGCUUGACUCAGGAUUUAAAAACUGGAACGGUGAAGGUG", "bound/input enrichment": "0.722 ratio"}
{"Sequence": "UCUCUUUAUCCUCAGUUUAUGUUUCAUUUAAGAAGAUCUCCUUUCUUGCAAGUUUUUAACAAUAGUCCUGAUGAGAGUUCAUACUAUCGUCACCAUUUCAUGCGUCAGGAUCUGACCCAG", "bound/input enrichment": "0.941 ratio"}
{"Sequence": "UAAUAAUUAGCUAUUUUAUAAAGGUAACGAGAAAAAAUACACUAUGUCUGAUGAAGUUUUUAGCACCACUUUGGCAUAUACAAAGAGUCCAAAAGUUACCAAAAGAACUACUUUCCAGGA", "bound/input enrichment": "4.92 ratio"}
{"Sequence": "CUGUUUUGACAGCCACACAAUCUUGGCAUGUAUUAAGGAAAAAAAAAAUCCCUGUUGAAGUAGUUUUUCCACCUAUCAGCACUGAGUAAAUGCCAUAACUCCGCGGAAAUGGUCUAAAUA", "bound/input enrichment": "0.258 ratio"}
{"data": "Set 5", "target": "Histone acetyltransferase KAT6A, winged helix 2, GST fusion (KAT6A, Homo sapiens, UniProt Q92794, residues 85-181)", "method": "protein binding microarray", "molecule type": "double-stranded DNA, one strand shown", "sample": "in vitro", "tested at": "not given", "setting": "8-mer, flanks averaged, mean of 2 arrays, mostly near background", "relative to": "not given", "direction": "higher = stronger binding", "Residues (chain)": "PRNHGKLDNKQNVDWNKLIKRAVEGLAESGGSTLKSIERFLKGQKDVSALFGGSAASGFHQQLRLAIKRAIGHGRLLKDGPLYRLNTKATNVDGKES"}
{"Sequence": "ATGTCCTA", "E-score": -0.0466}
{"Sequence": "TACAGGGA", "E-score": -0.0728}
{"Sequence": "CGCGCACA", "E-score": 0.134}
{"Sequence": "ATCAGTAC", "E-score": 0.0208}
{"Sequence": "ACAGCCAC", "E-score": 0.178}
{"Sequence": "GGTAGGTA", "E-score": -0.108}
{"Sequence": "AAATTGCT", "E-score": 0.0311}
{"Sequence": "AGGTGTTG", "E-score": -0.224}
{"Sequence": "CGTACGCA", "E-score": 0.0181}
{"Sequence": "GAAACAAA", "E-score": 0.0387}
{"Sequence": "AAGTTGCT", "E-score": -0.0605}
{"Sequence": "CGGCGGGA", "E-score": 0.183}
{"Sequence": "AGACGGTA", "E-score": -0.0315}
{"Sequence": "CGTACGAA", "E-score": 0.127}
{"Sequence": "AGTGGGGA", "E-score": -0.109}
{"Sequence": "AATTGGTC", "E-score": 0.0745}
{"Sequence": "CGGTGCCA", "E-score": 0.137}
{"Sequence": "TACAAGTA", "E-score": -0.147}
{"Sequence": "CTTCCCGA", "E-score": 0.199}
{"Sequence": "CGGTCAAA", "E-score": -0.0185}
{"Sequence": "CCACTAGC", "E-score": -0.118}
{"Sequence": "CAGGTTTC", "E-score": 0.117}
{"Sequence": "CATTACAC", "E-score": -0.199}
{"Sequence": "TGGAGCAA", "E-score": 0.122}
{"data": "Other studies, line by line"}
{"Substance": "PhoQ, residues 284 288 289 292 302 303 GASLAW", "target": "PhoP, residues 12 14 15 18 19 NHFIF (Escherichia coli, UniProt P23836)", "test": "Sort-seq, measured: YFP reporter", "test system": "E. coli", "conditions": "PhoQ-PhoP variant library, together with: 10 µM Mg2+", "scale": "relative to: high Mg2+ state, higher = stronger signaling", "quantity": "fold induction", "value": 9.34}
